Results collected from several papers.
Protocols differ between the studies behind these lines. Numbers after ± are the reported error.
Cell line: HCT-116

Structure (SMILES)	test	system	conditions	IC50 [µM]
COc1ccc(CN2C[C@H](O)[C@H](O)[C@@H]2CO)cc1	cell growth or viability, MTS		72 h	> 200
Cc1cc(=O)oc2cc(OCC(=O)NCC(=O)NCC(=O)NN)ccc12	cell growth or viability, MTT			94.7
CC(C)c1cccc(C(C)C)c1[N+]#[C][Pd-]([Cl])([Cl])=[C](Nc1cccc(CN[C](NC(C)(C)C)=[Au][Cl])c1)Nc1c(C(C)C)cccc1C(C)C	cell growth or viability			> 100
CC(C)c1ccc2c(c1)CCC1[C@](C)(C(=O)OCCSc3nc(O)c(C#N)c(-c4ccccc4O)n3)CCC[C@]21C (stereo partly shown)	cell growth or viability, MTT		48 h	9.53 to 19.4
CCCCc1ccc(C(=O)O[C@@H]2CC(=O)O[C@H](C)C/C=C/C=C/[C@H](O[C@H]3CC[C@H](N(C)C)[C@@H](C)O3)[C@H](C)C[C@H](CC=O)[C@H](O[C@@H]3O[C@H](C)[C@@H](O[C@H]4C[C@@](C)(O)[C@@H](O)[C@H](C)O4)[C@H](N(C)C)[C@H]3O)[C@H]2OC)cc1	cell growth or viability, CCK-8		72 h	12.4
CCN1CCC2(CC1)C/C(=N\NC(=O)Nc1ccc([N+](=O)[O-])cc1)c1ccccc1O2			48 h	62.7 ± 2.67
N#Cc1c(F)c(F)c2nc(SCc3ccccc3)nc(N)c2c1F	cell growth or viability, MTT		96 h	4.89
CC(C)(C)CC(C)(C)Nc1c(-c2ccc3c(c2)OCO3)nc2cnccn12	cell growth or viability, MTT		24 h	27.5
Cc1ccc(C(C)C)cc1.[Au][S]C1=NCCS1.[Cl][Ru][Cl].c1ccc(P(CP(c2ccccc2)c2ccccc2)c2ccccc2)cc1	cell growth or viability, trypan blue		48 h	6.5
O=C(NCCCCCNc1n[n+]([O-])c2ccccc2[n+]1[O-])C(F)(F)F	cytotoxicity, MTT	10% FBS medium	6 h + 18 h, hypoxia 3% O2	44.1 ± 10.2
CC(C)c1cccc(C(C)C)c1[N+]#[C][Pd-]([Cl])([Cl])=[C](Nc1ccc(CN[C](Nc2c(C(C)C)cccc2C(C)C)=[Au][Cl])cc1)Nc1c(C(C)C)cccc1C(C)C	cell growth or viability			0.3
CO[C@@H]1[C@@H](O[C@@H]2O[C@H](C)[C@@H](O[C@H]3C[C@@](C)(O)[C@@H](OC(=O)C4CCCCC4)[C@H](C)O3)[C@H](N(C)C)[C@H]2O)[C@@H](CC=O)C[C@@H](C)[C@@H](O[C@H]2CC[C@H](N(C)C)[C@@H](C)O2)/C=C/C=C/C[C@@H](C)OC(=O)C[C@H]1O	cell growth or viability, CCK-8		72 h	13
COc1cccc2c(=O)c3c(NCCCCCCC(=O)Nc4ccccc4N)ccc([N+](=O)[O-])c3[nH]c12	cell growth or viability, MTT		72 h	21.1
CCOC(=O)c1ccc(NC(=O)CCc2nc3cc(Cl)ccc3[nH]c2=O)cc1	cell growth or viability, MTT			36
CC(C)c1cccc(C(C)C)c1[N+]#[C][Pd-2]([Cl])([Cl])[C]#[N+]c1c(C(C)C)cccc1C(C)C	cell growth or viability			> 100
COC(=O)[C@H](CC(C)C)NC(=O)CCn1nc(Cc2ccccc2)c2ccccc2c1=O	cell growth or viability, MTT		48 h	≥ 50
CCN1C(=O)CS/C1=N/N=C(\C)c1c(O)c2ccccc2oc1=O	cell growth or viability, MTT		48 h	10.8
CC(C)(C)N=[C](NCc1ccc(N)cc1)[AuH][Cl]	cell growth or viability			> 100
O=c1[nH]c2ccccc2nc1/C=C/c1ccc2ccccc2n1	cell growth or viability, MTT		72 h	> 50
O=C(CCCCCCOc1ccc(Nc2ncc(F)c(-c3cn(C4CCCCC4)nn3)n2)cc1)NO	cell growth or viability, SRB		72 h	2.19
NC(=S)NNC(=O)c1cc2c(ccc3ccccc32)oc1=O	cell growth or viability, SRB		72 h	3.5
NNC(=O)CNC(=O)CCn1nc(Cc2ccccc2)c2ccccc2c1=O	cell growth or viability, MTT		48 h	16.4
COc1ccc([C@@H]2COc3cc(O)ccc3C2)c(OC)c1	cell growth or viability, MTT		72 h	31.9
CSc1nc(Nc2cccc(/C(C)=N/NC(=O)c3ccccc3O)c2)c(C#N)c(-c2ccccc2)n1	cell growth or viability, MTT		48 h	19.4
CCCCNC(=O)O[C@H]1[C@H](C)O[C@@H](O[C@H]2[C@H](N(C)C)[C@@H](O)[C@H](O[C@H]3[C@@H](CC=O)C[C@@H](C)[C@@H](O[C@H]4CC[C@H](N(C)C)[C@@H](C)O4)/C=C/C=C/C[C@@H](C)OC(=O)C[C@@H](O)[C@@H]3OC)O[C@@H]2C)C[C@@]1(C)O	cell growth or viability, CCK-8		72 h	> 50
CSc1nc(Nc2ccc(C(=O)N/N=C/c3ccccc3Cl)cc2)c(C#N)c(-c2ccccc2)n1	cell growth or viability, MTT		48 h	30.2
C/C(=N\N=C(SCc1ccccc1)SCc1ccccc1)c1ccc(S(=O)(=O)N2CCC(C)CC2)cc1	cell growth or viability, MTT			31.8
CCCN1CCN(CC(=O)N2CCN(c3cc(C)nc4ncnn34)CC2)CC1	cell growth or viability, MTT			62.6

Structure (SMILES)	test	system	conditions	IC50 [µM]
O=C(NCCOc1cnc(-c2ccc(N3CCN(C(=O)CN4CCC(C(=O)Nc5ccc6[nH]nc(-c7ccncc7)c6c5)C4)CC3)cc2)nc1)OC1CCC=CCCC1 (stereo not shown)	cell growth or viability, resazurin		96 h	0.1
Cc1ccc(C(=O)C2Sc3nnc(-n4nc(C)cc4C)n3NC2c2ccc(Cl)cc2)cc1 (racemic)	cell growth or viability, imaging		72 h	> 100
O=C(NCCNc1n[n+]([O-])c2ccccc2[n+]1[O-])C(F)(F)F	cytotoxicity, MTT	10% FBS medium	6 h + 18 h, hypoxia 3% O2	33.8 ± 13.1
CC(C)Cn1cc(-c2ccnc(Nc3ccc(OCCCCCCC(=O)NO)cc3)n2)nn1	cell growth or viability, SRB		72 h	1.96
CS/C(=N\N=C(/C)c1ccc(S(=O)(=O)N2CCC(C)CC2)cc1)N1CCCCC1	cell growth or viability, MTT			38.7
CC12CCCC(n3cc(C(=O)N4CC(N)C4)nn3)(C1)C1CC(C)(C)C1CC2 (stereo not shown)	cell growth or viability, CCK-8		72 h	13.7
Cc1cc(C)c(N[C](NCc2cccc(N[C](Nc3c(C(C)C)cccc3C(C)C)=[Pd-]([Cl])([Cl])[C]#[N+]c3c(C(C)C)cccc3C(C)C)c2)=[Au][Cl])c(C)c1	cell growth or viability			> 100
Cn1[c]([Ir-3]234([NH3+])[n]5c6ccc5C(c5c(F)c(F)c(F)c(F)c5F)=C5C=CC(=[N+]52)C(c2c(F)c(F)c(F)c(F)c2F)=c2ccc([n]23)=C(c2c(F)c(F)c(F)c(F)c2F)C2=[N+]4C(=C6c3c(F)c(F)c(F)c(F)c3F)C=C2)[n+](C)c2ccccc21.F[P-](F)(F)(F)(F)F	cell growth or viability, MTT		72 h	0.42
CCOC(=O)CS/C(Nc1ccccc1)=C(\C#N)C(=O)Nc1nnc(NC(=O)c2ccccc2)s1	cell growth or viability, MTT		48 h	63.1
Cc1cc(C)c([N+]#[C][Pd-]([Cl])([Cl])=[C](Nc2cccc(CN[C](Nc3c(C(C)C)cccc3C(C)C)=[Au][Cl])c2)Nc2c(C)cc(C)cc2C)c(C)c1	cell growth or viability			7.2
CC(=NNC(N)=S)c1ccc2ccccc2c1.CC(=NNC(N)=S)c1ccc2ccccc2c1.[Cl][Cu][Cl]	cytotoxicity, MTS		72 h	~1
O=C(NCCCCCCCCNc1n[n+]([O-])c2ccccc2[n+]1[O-])C(F)(F)F	cytotoxicity, MTT	10% FBS medium	6 h + 18 h, hypoxia 3% O2	50.5 ± 7.1
Cc1c(C)c(C)[c-](C)c1C.O=Cc1c[c-]c(-c2ccccn2)cc1.[Cl-].[Ir+3]	SRB		24 h, 72 h recovery	21.3 ± 0.7
CO[C@@H]1[C@@H](O[C@@H]2O[C@H](C)[C@@H](O[C@H]3C[C@@](C)(O)[C@@H](O)[C@H](C)O3)[C@H](N(C)C)[C@H]2O)[C@@H](CC=O)C[C@@H](C)[C@@H](O[C@H]2CC[C@H](N(C)C)[C@@H](C)O2)/C=C/C=C/C[C@@H](C)OC(=O)C[C@H]1OC(=O)c1ccc(C(C)(C)C)cc1	cell growth or viability, CCK-8		72 h	10.9
O=C(CN1C(=O)S/C(=C\c2ccccc2)C1=O)Nc1ccc(C(=O)Nc2ccc(F)cc2)cc1	cell growth or viability, MTT			18.8
C#CCN(CC(=O)O[C@H]1[C@H](C)O[C@@H](O[C@H]2[C@H](N(C)C)[C@@H](O)[C@H](O[C@H]3[C@@H](CC=O)C[C@@H](C)[C@@H](O[C@H]4CC[C@H](N(C)C)[C@@H](C)O4)/C=C/C=C/C[C@@H](C)OC(=O)C[C@@H](O)[C@@H]3OC)O[C@@H]2C)C[C@@]1(C)O)C(=O)c1ccc(C(C)(C)C)cc1	cell growth or viability, CCK-8		72 h	11
N=C(N)NS(=O)(=O)c1ccc(-n2cc(Cn3c(=O)c(Cc4ccccc4)nc4ccccc43)nn2)cc1	cell growth or viability, MTT		72 h	0.029
Cc1ccc(NC(=O)N/N=C2\CC3(CCN(C)CC3)Oc3ccccc32)cc1			48 h	7.75 ± 0.33
CSc1nc(Nc2ccc(/C(C)=N/NC(=O)c3ccc([N+](=O)[O-])cc3[N+](=O)[O-])cc2)c(C#N)c(-c2ccccc2)n1	cell growth or viability, MTT		48 h	1.14
CC1CNCCN1C(=O)c1cn(C23CCCC(C)(CCC4C2CC4(C)C)C3)nn1 (stereo not shown)	cell growth or viability, CCK-8		72 h	13.2
N#Cc1c(F)c(Cl)c2nc(SCC3CCCO3)nc(N)c2c1F (stereo not shown)	cell growth or viability, MTT		96 h	4.39
O=c1c(Cc2ccccc2)nc2ccccc2n1Cc1cn(-c2ccc(S(=O)(=O)Nc3ncccn3)cc2)nn1	cell growth or viability, MTT		72 h	0.217
COc1ccc(NC(=O)CCc2nc3cc(Cl)ccc3[nH]c2=O)cc1	cell growth or viability, MTT			5.81
C=CCSc1nc(N)c2c(F)c(C#N)c(F)c(Cl)c2n1	cell growth or viability, MTT		96 h	5.02
CCN1CCC2(CC1)C/C(=N\NC(=O)Nc1ccc(Cl)cc1)c1ccccc1O2			48 h	21.7 ± 0.88
COc1cc(OC)c2c(c1)OCC(c1cc(OC)c(OC)cc1OC)C2=NO (stereo not shown)	cell growth or viability, MTT		72 h	138
N#Cc1c(F)c(F)c2nc(SCC3CCCO3)nc(N)c2c1F (stereo not shown)	cell growth or viability, MTT		96 h	5.68
